Assay results collected from several papers.
Values joined by “and” are separate records of one study, mostly repeats; a detail may differ. ± gives the spread as reported.
MAL12: Alpha-glucosidase MAL12 (MAL12, Saccharomyces cerevisiae S288c, UniProt P53341)
Chain of UniProt P53341 (whole entry, looked up): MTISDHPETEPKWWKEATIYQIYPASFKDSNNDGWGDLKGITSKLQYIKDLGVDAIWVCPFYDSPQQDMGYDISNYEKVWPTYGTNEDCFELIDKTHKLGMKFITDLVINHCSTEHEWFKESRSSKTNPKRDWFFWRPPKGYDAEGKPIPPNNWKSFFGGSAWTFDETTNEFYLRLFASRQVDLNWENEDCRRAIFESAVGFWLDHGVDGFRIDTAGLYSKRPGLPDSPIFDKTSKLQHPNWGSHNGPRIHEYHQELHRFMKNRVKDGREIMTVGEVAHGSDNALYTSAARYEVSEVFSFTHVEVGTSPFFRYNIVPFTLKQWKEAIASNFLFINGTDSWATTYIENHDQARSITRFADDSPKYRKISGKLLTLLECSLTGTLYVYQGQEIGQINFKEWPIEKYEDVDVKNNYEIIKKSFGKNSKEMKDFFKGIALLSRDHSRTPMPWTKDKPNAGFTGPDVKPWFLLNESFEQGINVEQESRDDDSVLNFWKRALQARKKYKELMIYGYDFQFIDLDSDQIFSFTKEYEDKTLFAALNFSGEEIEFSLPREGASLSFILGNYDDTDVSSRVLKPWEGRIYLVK
P4HB: Protein disulfide-isomerase (P4HB, Homo sapiens, UniProt P07237)
Chain of UniProt P07237 (whole entry, looked up): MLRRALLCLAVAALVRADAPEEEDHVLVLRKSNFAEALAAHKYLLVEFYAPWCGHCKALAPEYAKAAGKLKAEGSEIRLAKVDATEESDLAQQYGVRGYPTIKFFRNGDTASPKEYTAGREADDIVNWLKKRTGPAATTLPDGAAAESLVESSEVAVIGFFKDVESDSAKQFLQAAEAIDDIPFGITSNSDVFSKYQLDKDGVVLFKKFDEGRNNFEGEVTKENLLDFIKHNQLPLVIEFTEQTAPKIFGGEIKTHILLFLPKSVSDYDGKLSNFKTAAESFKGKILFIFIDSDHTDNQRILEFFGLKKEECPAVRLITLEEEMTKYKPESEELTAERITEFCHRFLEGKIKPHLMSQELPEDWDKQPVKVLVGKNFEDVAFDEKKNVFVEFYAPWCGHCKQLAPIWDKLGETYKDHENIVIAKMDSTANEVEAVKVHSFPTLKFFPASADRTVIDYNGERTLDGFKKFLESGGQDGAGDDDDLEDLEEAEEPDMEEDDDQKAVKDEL
RPS6KA1: Ribosomal protein S6 kinase alpha-1 (RPS6KA1, Homo sapiens, UniProt Q15418)
Chain of UniProt Q15418 (whole entry, looked up): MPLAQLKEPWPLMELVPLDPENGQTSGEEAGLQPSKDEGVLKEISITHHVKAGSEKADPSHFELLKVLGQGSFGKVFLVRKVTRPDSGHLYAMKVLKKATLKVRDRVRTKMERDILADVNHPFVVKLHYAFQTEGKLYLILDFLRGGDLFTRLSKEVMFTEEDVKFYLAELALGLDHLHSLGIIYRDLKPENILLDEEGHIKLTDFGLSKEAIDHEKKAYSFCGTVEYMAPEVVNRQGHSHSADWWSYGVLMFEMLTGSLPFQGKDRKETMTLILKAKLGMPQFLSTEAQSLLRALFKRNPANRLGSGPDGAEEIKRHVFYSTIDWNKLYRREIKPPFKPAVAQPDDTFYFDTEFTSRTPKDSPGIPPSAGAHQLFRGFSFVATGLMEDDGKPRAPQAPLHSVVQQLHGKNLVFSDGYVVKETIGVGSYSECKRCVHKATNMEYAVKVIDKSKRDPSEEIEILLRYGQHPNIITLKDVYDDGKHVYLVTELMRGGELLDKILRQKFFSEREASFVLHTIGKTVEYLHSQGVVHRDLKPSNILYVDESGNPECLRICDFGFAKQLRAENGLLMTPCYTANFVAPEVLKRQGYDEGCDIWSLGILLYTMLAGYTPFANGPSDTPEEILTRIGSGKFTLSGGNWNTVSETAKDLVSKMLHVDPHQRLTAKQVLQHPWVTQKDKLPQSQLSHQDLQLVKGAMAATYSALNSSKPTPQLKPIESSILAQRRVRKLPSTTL
PGR: Progesterone receptor (PGR, Homo sapiens, UniProt P06401)
ADRA2C: Alpha-2C adrenergic receptor (ADRA2C, Homo sapiens, UniProt P18825)
Chain of UniProt P18825 (whole entry, looked up): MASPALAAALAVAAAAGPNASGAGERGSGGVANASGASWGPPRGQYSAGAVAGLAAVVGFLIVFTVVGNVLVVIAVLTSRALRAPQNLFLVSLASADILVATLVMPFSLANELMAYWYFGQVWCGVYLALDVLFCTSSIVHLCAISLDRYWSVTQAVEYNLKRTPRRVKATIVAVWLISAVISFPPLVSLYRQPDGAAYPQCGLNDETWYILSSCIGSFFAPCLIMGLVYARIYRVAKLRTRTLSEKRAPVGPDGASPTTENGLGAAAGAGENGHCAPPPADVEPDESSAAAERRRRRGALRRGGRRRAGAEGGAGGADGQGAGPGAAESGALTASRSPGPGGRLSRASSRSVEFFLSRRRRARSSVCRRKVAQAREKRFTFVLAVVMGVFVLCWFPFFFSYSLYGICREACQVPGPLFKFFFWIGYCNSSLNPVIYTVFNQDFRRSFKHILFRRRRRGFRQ
Chain of UniProt P35414 (whole entry, looked up): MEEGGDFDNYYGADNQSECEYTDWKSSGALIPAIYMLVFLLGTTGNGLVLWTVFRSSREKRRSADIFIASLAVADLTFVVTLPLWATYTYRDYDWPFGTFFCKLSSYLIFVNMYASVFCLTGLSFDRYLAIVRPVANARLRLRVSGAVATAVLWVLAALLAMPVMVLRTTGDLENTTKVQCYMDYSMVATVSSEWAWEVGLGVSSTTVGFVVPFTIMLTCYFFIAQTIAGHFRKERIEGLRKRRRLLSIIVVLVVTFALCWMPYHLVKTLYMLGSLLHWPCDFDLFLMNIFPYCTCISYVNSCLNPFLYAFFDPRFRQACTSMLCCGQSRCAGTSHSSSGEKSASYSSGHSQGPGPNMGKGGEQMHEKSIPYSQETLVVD
Chain of UniProt O43318 (whole entry, looked up): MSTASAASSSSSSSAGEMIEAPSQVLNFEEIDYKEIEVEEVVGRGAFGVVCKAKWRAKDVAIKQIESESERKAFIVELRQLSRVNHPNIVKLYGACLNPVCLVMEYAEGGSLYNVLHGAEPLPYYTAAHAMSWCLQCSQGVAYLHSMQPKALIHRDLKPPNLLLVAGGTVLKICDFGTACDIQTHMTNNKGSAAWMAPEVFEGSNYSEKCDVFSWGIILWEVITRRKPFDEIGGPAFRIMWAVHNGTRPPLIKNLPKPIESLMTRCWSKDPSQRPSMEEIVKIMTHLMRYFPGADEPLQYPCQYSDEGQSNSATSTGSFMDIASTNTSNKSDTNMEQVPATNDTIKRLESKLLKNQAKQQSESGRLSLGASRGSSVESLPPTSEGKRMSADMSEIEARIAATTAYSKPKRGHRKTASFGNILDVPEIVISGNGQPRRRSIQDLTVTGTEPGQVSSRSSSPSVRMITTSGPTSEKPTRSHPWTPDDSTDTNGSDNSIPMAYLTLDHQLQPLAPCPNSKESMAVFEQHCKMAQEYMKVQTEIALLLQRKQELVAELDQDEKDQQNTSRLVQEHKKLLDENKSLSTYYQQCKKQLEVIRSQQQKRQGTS
Chain of UniProt Q15759 (whole entry, looked up): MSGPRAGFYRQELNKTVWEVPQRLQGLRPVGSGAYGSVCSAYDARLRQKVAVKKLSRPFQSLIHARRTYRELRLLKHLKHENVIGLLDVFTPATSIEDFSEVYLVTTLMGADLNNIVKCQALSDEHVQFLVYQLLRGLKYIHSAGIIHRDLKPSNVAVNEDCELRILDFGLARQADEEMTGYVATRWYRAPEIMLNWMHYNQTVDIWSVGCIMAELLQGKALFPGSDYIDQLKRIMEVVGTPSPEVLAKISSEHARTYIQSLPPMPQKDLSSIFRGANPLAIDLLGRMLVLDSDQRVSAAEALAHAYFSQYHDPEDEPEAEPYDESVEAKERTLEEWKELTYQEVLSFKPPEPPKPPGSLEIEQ
Chain of UniProt P35968 (whole entry, looked up): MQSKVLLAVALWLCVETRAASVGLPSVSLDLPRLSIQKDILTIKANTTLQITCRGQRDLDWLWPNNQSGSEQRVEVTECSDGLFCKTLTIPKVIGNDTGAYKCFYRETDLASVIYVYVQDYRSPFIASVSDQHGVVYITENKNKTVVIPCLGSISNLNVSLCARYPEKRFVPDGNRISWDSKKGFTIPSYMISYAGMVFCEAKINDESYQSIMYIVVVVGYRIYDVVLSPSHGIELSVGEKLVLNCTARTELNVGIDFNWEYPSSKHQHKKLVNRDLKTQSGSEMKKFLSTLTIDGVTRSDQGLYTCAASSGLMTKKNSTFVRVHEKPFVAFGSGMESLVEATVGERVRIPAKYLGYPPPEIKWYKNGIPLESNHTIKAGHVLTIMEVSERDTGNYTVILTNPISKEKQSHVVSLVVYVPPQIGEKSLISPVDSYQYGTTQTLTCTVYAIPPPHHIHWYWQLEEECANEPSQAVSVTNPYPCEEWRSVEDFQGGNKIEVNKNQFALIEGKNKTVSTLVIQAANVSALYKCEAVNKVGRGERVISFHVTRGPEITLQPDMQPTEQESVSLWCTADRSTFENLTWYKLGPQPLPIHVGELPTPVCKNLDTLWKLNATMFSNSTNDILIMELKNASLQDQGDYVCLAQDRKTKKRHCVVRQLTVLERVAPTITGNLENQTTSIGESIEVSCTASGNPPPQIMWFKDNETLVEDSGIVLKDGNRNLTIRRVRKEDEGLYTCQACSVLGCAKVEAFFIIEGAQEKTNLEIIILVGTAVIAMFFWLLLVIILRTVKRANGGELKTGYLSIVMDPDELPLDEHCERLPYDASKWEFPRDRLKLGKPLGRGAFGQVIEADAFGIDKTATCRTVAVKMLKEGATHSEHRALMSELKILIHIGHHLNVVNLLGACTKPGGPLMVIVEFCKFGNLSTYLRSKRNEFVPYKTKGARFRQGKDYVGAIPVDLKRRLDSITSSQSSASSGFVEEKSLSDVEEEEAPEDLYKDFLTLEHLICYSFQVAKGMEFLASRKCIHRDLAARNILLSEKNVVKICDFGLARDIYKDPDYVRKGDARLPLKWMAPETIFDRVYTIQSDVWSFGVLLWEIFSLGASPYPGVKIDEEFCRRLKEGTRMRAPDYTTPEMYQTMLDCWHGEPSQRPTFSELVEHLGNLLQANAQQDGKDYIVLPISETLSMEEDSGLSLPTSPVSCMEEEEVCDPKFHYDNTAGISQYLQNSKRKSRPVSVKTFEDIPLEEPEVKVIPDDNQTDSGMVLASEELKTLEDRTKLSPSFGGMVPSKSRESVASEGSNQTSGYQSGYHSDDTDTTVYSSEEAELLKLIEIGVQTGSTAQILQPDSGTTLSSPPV

CN1CCN(c2nc(N)c3ccccc3n2)CC1 — inhibition (5-hydroxytryptamine receptor 1D (Htr1d, Rattus norvegicus, UniProt P28565); radioligand binding, radioligand competition binding; rat; 0.1 µM, mean of two; relative to: control specific binding): 3.3%
O=C1OC(c2ccc(O)c(S(=O)(=O)O)c2)(c2ccc(O)c(S(=O)(=O)O)c2)c2c(Br)c(Br)c(Br)c(Br)c21 — inhibition (Hepatic sodium/bile acid cotransporter (SLC10A1, Homo sapiens, UniProt Q14973); uptake, bile acid, sodium-independent, inhibitor; HepG2-hNTCP-C4; up to 100 µM, sodium-free, added: [3H]-taurocholic acid): no effect
CN1C(=S)N(c2ccccc2)C(=O)/C1=C1/C(=O)N(C)c2ccc(Cl)cc21 — inhibition (MAL12; enzyme activity; 200 µM, added: pNPG): 54.4% and 54.3%
COCc1c(-c2cc3cc(C)cc(OC)c3s2)c2c(N)ncnn2c1CN1CCNC(=O)C1 — inhibition (kainate receptor; radioligand binding; 10 µM): 3%
O=C(O)C[C@H](NC(=O)[C@H](CC(=O)O)NC(=O)[C@H](CC(=O)O)NC(=O)[C@H](CC(=O)O)NC(=O)[C@H](CC(=O)O)NC(=O)[C@H](CC(=O)O)NC(=O)[C@H](CC(=O)O)NC(=O)[C@H](CC(=O)O)NC(=O)[C@H](CC(=O)O)NC(=O)[C@H](CC(=O)O)NC(=O)[C@H](CC(=O)O)NC(=O)[C@H](CCCCNC(=O)c1ccc(C(=O)NCCOCCOB2BBBBBB3BBBB3B2)cc1)NC(=O)CN1CCN(CC(=O)O)CCN(CC(=O)O)CCN(CC(=O)O)CC1)C(=O)O [gallium-67 labelled] — tissue uptake (ddY mice, male, stomach; intravenous, 37 kBq, 10 min): 0.34 %ID
O=C1O[C@H]2[C@@H]3OC(=O)c4cc(O)c(O)c(O)c4-c4c(O)c(O)c5oc(=O)c6c(c(O)c(O)c7oc(=O)c4c5c76)-c4c(cc(O)c(O)c4O)C(=O)OC[C@H]3OC(O)[C@@H]2OC(=O)c2cc(O)c(O)c(O)c2-c2c1cc(O)c(O)c2O (mixture of isomers) — inhibition (P4HB; di-eosin-GSSG reductase activity; 20 µM, 15 min): inhibited
CCc1ccc(N2C(=O)/C(=C3/C(=O)N(C)c4ccc(Cl)cc43)NC2=S)cc1 — inhibition (MAL12; enzyme activity; 25 µM, added: pNPG): 15% and 14.8%
COc1cc2c(cc1C(F)(F)F)N(C(=O)Nc1cc(F)cc(-c3cccnc3)c1)CC2 — IC50 (Plasmodium falciparum; 3D7): 1.58 µM
CC[C@H](C)[C@H](NC(=O)[C@@H](NC(=O)[C@H](N)Cc1ccccc1)C(C)C)C(=O)N[C@@H](C)C(N)=O — inhibition (Amyloid-beta precursor protein (APP, Homo sapiens, UniProt P05067); amyloid-beta aggregation, thioflavin T fluorescence; 2.0 µM, 144 h, added: 2 µM amyloid-beta): 73.4%
CN1CCC(=C2c3ccccc3CC(=O)c3sccc32)CC1 — IC50 (Plasmodium falciparum; D10): 3.98 µM
COc1cc(Nc2ncc(F)c(Nc3ccc4c(n3)NC(=O)C(C)(C)O4)n2)cc(OC)c1OC — inhibition (RPS6KA1; KINOMEscan; 10 µM, RSK1(Kin.Dom.2-C-terminal)): 27%
O=C(O[C@@H]1Cc2c(O)cc(O)cc2O[C@@H]1c1cc(=O)c(O)c2c(O)c(O)cc([C@H]3Oc4cc(O)cc(O)c4C[C@H]3O)c2c1)c1cc(O)c(O)c(O)c1 — inhibition (P4HB; di-eosin-GSSG reductase activity; 20 µM, 15 min): inhibited
O=C(N1CCC2(CC1)C[C@H](CN1CCCCS1(=O)=O)CCO2)C1(c2ccccc2)CCCC1 — inhibition (ATP-dependent RNA helicase DDX3X (DDX3X, Homo sapiens, UniProt O00571); ATPase activity; 50 µM): 30%
COc1ccc(N2C(=O)N(c3c(C)cccc3Cl)Cc3cnc(Nc4ccc(C5CCN(C)CC5)cc4OC)nc32)nc1 — inhibition (RPS6KA1; kinase activity, inhibitor; 0.5 µM, kinase RSK1): 11%
CCc1cc(=O)[nH]c(-n2nc(C)cc2NC(=O)c2cc(C)ccc2F)n1 — inhibition (Vascular endothelial growth factor receptor 2 (KDR, Homo sapiens, UniProt P35968); radiometric kinase; 10 µM): no inhibition
CC(C)N1CCC[C@H]1CNC(=O)c1cn(C2CCCC2)c(=O)c2c1c1ccccc1n2C — inhibition (Glutamate receptor ionotropic, NMDA 1 (Grin1, Rattus norvegicus, UniProt P35439); radioligand binding; rat; 10 µM): -2%
O=C(O)CC(F)(F)C(=O)N1N=C(c2c(-c3ccc(Cl)cc3)c3ccccc3[nH]c2=O)C[C@H]1c1ccc(Cl)cc1 — inhibition (Glutamate NMDA receptor; Grin1/Grin2b (Grin1/Grin2b, Rattus norvegicus, UniProt P35439+Q00960); TEVC; Xenopus oocytes; concentration not given, diheteromeric GluN1a/GluN2B, added: glutamate, glycine): no inhibition
CC(C)CC(=O)OC[C@H]1O[C@@](C#N)(c2ccc3c(N)ncnn23)[C@H](O)[C@@H]1O — inhibition (PGR; 20 µM): 3%
c1ccc(C(NCCNC(c2ccccc2)c2ccccc2)c2ccccc2)cc1 — inhibition (PGR; activity; 10 µM, Eurofins selectivity panel): 65%
CN(CCN1CCC(OC(=O)Nc2ccccc2-c2ccccc2)CC1)C(=O)c1ccc(CN2CCC(C(N)=O)CC2)cc1 — inhibition (phosphodiesterase III; enzyme activity; 1 µM): 10%
O=S(=O)(O)c1cc[c]([Hg][Cl])cc1 — inhibition (rat aminopeptidase III (NAP-2); enzyme activity; 20 µM): 95%
CN(C(=O)n1cnc(-c2ccc[n+]([O-])c2)c1)C1CCCCC1 — inhibition (Apelin receptor (APLNR, Homo sapiens, UniProt P35414); radioligand binding; 50 µM): 11%
CN1CCN(c2cc(-c3ccncc3)c(-c3ccc4ccccc4c3)nn2)CC1 — inhibition (ADRA2C; antagonist, FLIPR; 10 µM): 12%
FC(F)(F)c1cccc(Nc2nc(NCCOc3ccccc3)nc3[nH]cnc23)c1 — inhibition (Mitogen-activated protein kinase 11 (MAPK11, Homo sapiens, UniProt Q15759); enzyme activity, inhibitor, Thermo Fisher kinase screening; 5 µM): 3%
COc1ccc2c3c([nH]c2c1)CCN(C)CC3 — inhibition (Neuronal acetylcholine receptor subunit alpha-7 (Chrna7, Rattus norvegicus, UniProt Q05941); ACh-evoked current, antagonist, two-electrode voltage clamp; Xenopus laevis oocytes; 10 µM, holding potential -120 mV, added: 100 µM acetylcholine): 78.4 ± 5.9%
O=C(Nc1cnccc1Cl)N1CCN(Cc2ccc3c(c2)OC(F)(F)O3)CC1 — inhibition (Serine/threonine-protein kinase 17A (STK17A, Homo sapiens, UniProt Q9UEE5); kinase activity, inhibitor; 50 µM, human): -3%
C#Cc1n[nH]c2c(-c3cn([C@@H](C)c4ccccc4)c(=O)[nH]c3=O)cc(F)cc12 — inhibition (Mitogen-activated protein kinase kinase kinase 7, with TAB1 (MAP3K7, Homo sapiens, UniProt O43318); kinase activity, inhibitor; 100 nM): -3%
O=C(Nc1cccnn1)N1CCC(=Cc2cccc(Oc3ccc(C(F)(F)F)cn3)c2)CC1 — inhibition (ADRA2C; binding; 50 µM, added: [3H]rauwolscine): 87%
Cc1ncc(C)n2nc(/C=C/c3nc(N4CCCC4)cc(N4CCOCC4)n3)nc12 — inhibition (Na+/K+-ATPase; enzyme activity; 10 µM): 6%
CCCC[C@@H](NC(=O)[C@@H](N)Cc1ccc(O)cc1)C(=O)NCC(=O)N[C@@H](Cc1ccc(F)cc1)C(=O)N(C)CCC[C@@]1(c2ccc(F)cc2)OCc2cc(C#N)ccc21 — inhibition (ADRA2C; 10 µM): < 50%
Cn1cccc1-c1cccnc1 — inhibition (ADRA2C; binding; 50 µM): 14.9%
